Measured values from different studies.
Each line is one published result; not all experiments were run side by side. Numbers after ± are the reported error.

Sequences of proteins named here, by UniProt entry; tags and fusion partners are left off. Residues count along the entry.
UniProt P12389, 28-511 limits assumed: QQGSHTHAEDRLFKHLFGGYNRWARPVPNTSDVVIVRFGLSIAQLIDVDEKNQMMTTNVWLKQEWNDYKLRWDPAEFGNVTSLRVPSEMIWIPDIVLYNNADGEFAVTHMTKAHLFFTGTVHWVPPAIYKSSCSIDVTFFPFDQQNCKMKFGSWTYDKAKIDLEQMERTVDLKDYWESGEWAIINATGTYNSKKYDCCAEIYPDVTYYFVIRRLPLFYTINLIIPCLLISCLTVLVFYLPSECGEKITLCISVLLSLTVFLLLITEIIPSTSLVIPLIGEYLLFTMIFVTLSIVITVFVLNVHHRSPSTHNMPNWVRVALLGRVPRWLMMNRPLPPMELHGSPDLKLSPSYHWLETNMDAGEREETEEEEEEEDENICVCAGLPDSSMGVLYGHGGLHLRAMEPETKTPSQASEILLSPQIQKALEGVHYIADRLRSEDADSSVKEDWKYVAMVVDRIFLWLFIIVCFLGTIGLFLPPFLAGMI
UniProt P12392, 21-495 limits assumed: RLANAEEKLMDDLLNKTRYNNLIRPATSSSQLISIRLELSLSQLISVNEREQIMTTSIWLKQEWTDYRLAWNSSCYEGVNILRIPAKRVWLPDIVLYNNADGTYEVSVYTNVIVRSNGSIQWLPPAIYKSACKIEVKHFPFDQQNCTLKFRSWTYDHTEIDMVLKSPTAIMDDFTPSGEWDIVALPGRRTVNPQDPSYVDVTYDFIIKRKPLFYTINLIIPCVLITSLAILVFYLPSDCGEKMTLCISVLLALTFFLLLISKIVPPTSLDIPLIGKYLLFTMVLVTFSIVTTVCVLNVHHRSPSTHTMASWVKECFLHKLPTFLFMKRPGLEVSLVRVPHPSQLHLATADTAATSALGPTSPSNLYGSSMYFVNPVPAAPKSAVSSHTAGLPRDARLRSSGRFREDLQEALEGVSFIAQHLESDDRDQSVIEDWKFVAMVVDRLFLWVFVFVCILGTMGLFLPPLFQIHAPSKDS
UniProt F1M9V7, 1-920: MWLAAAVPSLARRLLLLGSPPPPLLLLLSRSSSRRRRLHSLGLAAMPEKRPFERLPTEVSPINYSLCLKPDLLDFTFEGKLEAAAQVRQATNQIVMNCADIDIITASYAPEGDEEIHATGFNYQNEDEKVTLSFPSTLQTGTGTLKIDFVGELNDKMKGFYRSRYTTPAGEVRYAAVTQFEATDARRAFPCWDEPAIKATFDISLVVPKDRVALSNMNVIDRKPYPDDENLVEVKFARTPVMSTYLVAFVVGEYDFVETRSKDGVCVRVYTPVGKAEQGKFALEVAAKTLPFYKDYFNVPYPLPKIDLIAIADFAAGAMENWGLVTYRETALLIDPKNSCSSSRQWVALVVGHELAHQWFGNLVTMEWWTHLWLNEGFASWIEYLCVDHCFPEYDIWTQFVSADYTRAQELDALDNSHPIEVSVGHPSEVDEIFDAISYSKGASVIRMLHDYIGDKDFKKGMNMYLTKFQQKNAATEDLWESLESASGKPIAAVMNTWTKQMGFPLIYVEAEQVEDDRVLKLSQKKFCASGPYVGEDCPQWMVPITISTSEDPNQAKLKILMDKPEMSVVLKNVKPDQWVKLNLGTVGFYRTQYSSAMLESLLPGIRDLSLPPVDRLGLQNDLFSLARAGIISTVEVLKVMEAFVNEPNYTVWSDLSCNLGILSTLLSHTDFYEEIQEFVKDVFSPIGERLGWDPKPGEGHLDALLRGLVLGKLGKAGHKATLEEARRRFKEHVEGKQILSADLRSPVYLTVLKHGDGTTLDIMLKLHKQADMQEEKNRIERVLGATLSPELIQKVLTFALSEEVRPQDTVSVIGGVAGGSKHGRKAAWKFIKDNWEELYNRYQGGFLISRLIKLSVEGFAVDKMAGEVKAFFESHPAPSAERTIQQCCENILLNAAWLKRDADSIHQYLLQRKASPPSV
UniProt P37136, 32-574 limits assumed: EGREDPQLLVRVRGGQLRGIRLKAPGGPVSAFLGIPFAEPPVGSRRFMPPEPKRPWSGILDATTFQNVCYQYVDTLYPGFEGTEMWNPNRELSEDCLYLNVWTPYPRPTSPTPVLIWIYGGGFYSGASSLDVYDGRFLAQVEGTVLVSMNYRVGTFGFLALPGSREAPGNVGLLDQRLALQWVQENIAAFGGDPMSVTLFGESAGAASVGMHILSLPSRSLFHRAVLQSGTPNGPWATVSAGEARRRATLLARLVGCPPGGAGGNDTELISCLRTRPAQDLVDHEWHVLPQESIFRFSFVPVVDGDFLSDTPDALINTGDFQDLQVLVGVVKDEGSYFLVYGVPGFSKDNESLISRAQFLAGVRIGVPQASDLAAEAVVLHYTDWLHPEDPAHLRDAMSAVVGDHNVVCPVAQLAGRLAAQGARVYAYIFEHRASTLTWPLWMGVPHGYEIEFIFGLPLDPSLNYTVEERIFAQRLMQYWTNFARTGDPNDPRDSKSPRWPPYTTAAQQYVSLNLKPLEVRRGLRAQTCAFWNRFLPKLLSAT

SMILES | target or system | assay | system | setting | how to read | quantity | value
CC[C@H](C)[C@@H]1NC(=O)[C@H](CCC(=O)O)NC(=O)[C@@H]2CCCN2C(=O)[C@H](Cc2c[nH]cn2)NC(=O)[C@H](CCCNC(=N)N)NC(=O)[C@H](C(C)C)NC(=O)[C@H](CC(N)=O)NC(=O)[C@@H]2CSSC[C@H](NC(=O)CN)C(=O)N[C@@H](CSSC[C@@H](C(N)=O)NC1=O)C(=O)N[C@@H](CO)C(=O)N[C@@H](Cc1c[nH]cn1)C(=O)N1CCC[C@H]1C(=O)N[C@@H](C(C)C)C(=O)N2 | Neuronal acetylcholine receptor; alpha2/beta4 (Rattus norvegicus, UniProt P12389+P12392) | ion current, antagonist, two-electrode voltage clamp | Xenopus oocytes | rat, together with: ACh 300 µM | – | IC50 | > 10 µM
CC(C)C[C@H](NC(=O)[C@H](Cc1ccccc1)NC(=O)CNC(=O)CNC(=O)[C@@H](N)Cc1ccc(O)cc1)C(=O)O | Puromycin-sensitive aminopeptidase (Rattus norvegicus, UniProt F1M9V7) | substrate | – | rat enzyme | – | Km | 117 µM
Cc1nn(-c2ccc(Cl)cc2)c2c1C(c1ccc(O)cc1)C(C#N)=C(N)O2 (stereo not shown) | Vero E6 | – | – | 1.6 µM | – | viability | 80.5%
COP(=O)(OC)Oc1ccc([N+](=O)[O-])cc1Cl | Ache (Rattus norvegicus, UniProt P37136) | enzyme activity, inhibitor, discontinuous Ellman | rat, postnatal day 12, rat heart homogenate | 15 min, 37 °C | – | IC50 | 0.084 µM
Fc1ccc2[nH]cc(CNCC3(N4CCCC4)COC3)c2c1 | U87 | single-dose screen | – | 30 µM, 48 h | relative to: DMSO control | viability | 98.7%
O=C(Nc1cccc(C2=NCCN2)c1)c1ccc(-c2ccc(C(=O)Nc3cccc(C4=NCCN4)c3)cc2)cc1 | Trypanosoma brucei brucei | – | Lister 427, BALB/c mice | ip, 4 days | – | lowest effective dose | ~3 mg/kg
Cc1nn(-c2ccc(Cl)cc2)c2c1C(c1cc(Cl)ccc1Cl)C(C#N)=C(N)O2 (stereo not shown) | Vero E6 | MTT | – | 100 µM | – | viability | 51.2%
Cc1ccc2[nH]cc(CNCC3(N4CCCC4)COC3)c2c1 | HEK | single-dose screen | – | 30 µM, 48 h, off-target toxicity | relative to: DMSO control | viability | 100%
NC12CC3CC(F)(CC(C1)c1ccccc13)C2 | Caco-2 | – | – | – | relative to: Papp B-A over Papp A-B | efflux ratio | 0.7 ± 0.1
CCOC(=O)c1c(-c2ccc(Cl)cc2Cl)n(-c2nc(-c3ccc(Cl)cc3)c3c(NC(=O)c4ccccc4)nnc-3[nH]2)[nH]c1=O | SR | SRB | – | – | – | CC50 | > 100 µM
CC(C)C[C@H](NC(=O)[C@@H](NC(=O)c1cc2ccccc2[nH]1)C(C)C)C(=O)N[C@H](C=O)C[C@@H]1CCCNC1=O | A549 | MTT | – | 24 h | – | CC50 | > 100 µM
N#Cc1c(-c2ccc(Cl)cc2Cl)n(-c2nc(-c3ccc(Cl)cc3)c3c(NC(=O)c4ccccc4)nnc-3[nH]2)[nH]c1=O | A549/ATCC | NCI60 SRB | – | 5 log dose range | – | CC50 | > 100 µM
Cc1nn(-c2ccc(Cl)cc2)c2c1C(c1cccc(Cl)c1Cl)C(C#N)=C(N)O2 (stereo not shown) | Vero E6 | – | – | 6.3 µM | – | viability | 66.5%
